Assay results pooled from the literature.
Protocols differ between the studies behind these lines.
Sequence of UniProt P07197 (whole entry, looked up): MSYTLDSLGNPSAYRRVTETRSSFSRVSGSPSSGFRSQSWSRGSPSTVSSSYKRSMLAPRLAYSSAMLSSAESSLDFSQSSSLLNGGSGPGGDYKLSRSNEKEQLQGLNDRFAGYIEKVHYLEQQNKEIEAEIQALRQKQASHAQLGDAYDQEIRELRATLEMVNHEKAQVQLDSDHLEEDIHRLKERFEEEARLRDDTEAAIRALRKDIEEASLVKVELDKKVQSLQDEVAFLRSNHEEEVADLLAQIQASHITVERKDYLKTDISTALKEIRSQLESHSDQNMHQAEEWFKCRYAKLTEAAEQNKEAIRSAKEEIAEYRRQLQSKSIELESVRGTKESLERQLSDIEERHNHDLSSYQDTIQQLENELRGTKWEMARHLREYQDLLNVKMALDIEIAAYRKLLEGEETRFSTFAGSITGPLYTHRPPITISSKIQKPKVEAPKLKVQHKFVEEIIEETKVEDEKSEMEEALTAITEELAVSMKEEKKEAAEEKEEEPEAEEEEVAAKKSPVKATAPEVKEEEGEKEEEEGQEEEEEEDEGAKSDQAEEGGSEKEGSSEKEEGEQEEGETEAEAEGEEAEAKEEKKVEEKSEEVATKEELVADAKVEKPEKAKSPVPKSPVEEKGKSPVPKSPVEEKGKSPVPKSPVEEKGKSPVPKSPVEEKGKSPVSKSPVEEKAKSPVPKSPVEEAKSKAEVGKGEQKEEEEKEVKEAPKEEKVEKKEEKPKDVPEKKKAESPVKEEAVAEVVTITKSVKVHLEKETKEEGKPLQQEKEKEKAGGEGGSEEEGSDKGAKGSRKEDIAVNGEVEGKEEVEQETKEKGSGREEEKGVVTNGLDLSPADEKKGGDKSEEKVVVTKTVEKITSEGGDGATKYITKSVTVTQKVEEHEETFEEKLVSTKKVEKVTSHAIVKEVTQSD
Sequence of UniProt P41595 (whole entry, looked up): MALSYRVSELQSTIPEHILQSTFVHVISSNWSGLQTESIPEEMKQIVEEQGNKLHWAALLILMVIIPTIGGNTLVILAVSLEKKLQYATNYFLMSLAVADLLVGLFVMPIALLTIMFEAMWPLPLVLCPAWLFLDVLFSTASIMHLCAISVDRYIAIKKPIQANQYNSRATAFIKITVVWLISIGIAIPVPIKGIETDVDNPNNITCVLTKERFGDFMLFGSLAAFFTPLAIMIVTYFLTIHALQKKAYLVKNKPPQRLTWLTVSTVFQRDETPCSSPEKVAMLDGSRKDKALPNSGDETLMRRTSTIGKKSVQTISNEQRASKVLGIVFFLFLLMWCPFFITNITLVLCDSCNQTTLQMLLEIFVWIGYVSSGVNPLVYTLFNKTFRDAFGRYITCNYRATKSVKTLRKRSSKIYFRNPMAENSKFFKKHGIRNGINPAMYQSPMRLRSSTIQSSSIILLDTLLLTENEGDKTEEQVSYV

| Structure (SMILES) | tested on | test | test system | setting | scale | quantity | result |
| --- | --- | --- | --- | --- | --- | --- | --- |
| CC[C@H](C)[C@H](NC(=O)[C@H](C)NC(=O)[C@H](CCCCN)NC(=O)[C@H](CC(C)C)NC(=O)[C@H](C)NC(=O)[C@@H](NC(=O)[C@H](Cc1c[nH]cn1)NC(=O)[C@H](CC(C)C)NC(=O)[C@@H](NC(=O)[C@@H](NC(=O)[C@H](CCCCN)NC(=O)[C@H](C)NC(=O)[C@H](C)NC(=O)[C@H](CO)NC(=O)[C@H](CCCCN)NC(=O)[C@H](Cc1ccccc1)NC(=O)[C@@H](NC(=O)[C@H](CCCCN)NC(=O)[C@H](CC(C)C)NC(=O)[C@H](Cc1ccccc1)NC(=O)[C@H](CO)NC(=O)[C@H](CCCCN)NC(=O)[C@H](Cc1c[nH]c2ccccc12)NC(=O)[C@H](CCCCN)NC(C)=O)[C@@H](C)O)[C@@H](C)O)C(C)C)[C@@H](C)O)C(=O)N[C@@H](CO)C(=O)N[C@@H](CO)C(N)=O | Klebsiella pneumoniae |  | ATCC 700603 (ESBL) |  |  | MIC90 | 8 µg/mL |
| CO[C@H]1C[C@@H]2CC[C@@H](C)[C@@](O)(O2)C(=O)C(=O)N2CCCC[C@H]2C(=O)O[C@H]([C@H](C)C[C@@H]2CC[C@@H](OC(=O)NCCOCCOCCOCCOCCOCCOCCOCCOCCC(=O)N3CCc4cc(Cn5nc(-c6ccc7oc(N)nc7c6)c6c(N)ncnc65)ccc4C3)[C@H](OC)C2)C[C@@H](O)[C@H](C)/C=C(\C)[C@@H](O)[C@@H](OC)C(=O)[C@H](C)C[C@H](C)/C=C/C=C/C=C/1C |  |  | patients with advanced solid tumours | intravenous, 10 mg weekly, any grade |  | dysgeusia incidence | 25% |
| O=C(NNc1ccccc1)c1nnc(CC23CC4CC(CC(C4)C2)C3)o1 | Fusarium graminearum | fungal growth, inhibitor |  |  |  | EC50 | > 25 µg/mL |
| c1ccc(C(NCCNC(c2ccccc2)c2ccccc2)c2ccccc2)cc1 | GABAA central, rat | binding |  | 10 µM, Eurofins selectivity panel, with: muscimol |  | inhibition | 3% |
| C[C@]12CC[C@H]3[C@@H](CC=C4CC(O)CC[C@@]43CO)[C@@H]1CCC2O (stereo partly shown) |  | measured: TSPO, CYP27A1 | rat, GAN diet-induced MASH, liver | dose not given | baseline: GAN diet plus vehicle | protein level | decreased |
| Cc1cc(NC(=O)c2cccc(S(F)(F)(F)(F)F)c2)cc(-n2ccn3nc(-c4cccnc4)cc23)c1 | murine hepatitis virus | viral replication, nanoluciferase reporter | DBT | 1 µM, 10 h | baseline: DMSO vehicle | inhibition | 46% |
| COc1cc2c(Oc3ccc4[nH]c(C)cc4c3F)ccnc2cc1OCC1(N)CC1 |  |  | paediatric recurrent refractory sarcoma | 10 mg |  | grade 3 Myalgia | 0% |
| CC[C@H](C)[C@@H]1NC(=O)[C@@H]2CCCN2C(=O)[C@H](CC(C)C)NC(=O)[C@H](CC(C)C)NC(=O)CNC(=O)[C@@H](NC(=O)[C@@H](NC(=O)[C@H](CC(=O)O)NC(=O)CNC(=O)[C@@H](NC(=O)[C@H](C)NC(=O)CNC(=O)[C@H](CCCCN)NC(=O)[C@H](CC(C)C)NC(=O)[C@H](CC(C)C)NC(=O)[C@H](CCCCN)NC(=O)CNC(=O)[C@@H](NC(=O)[C@@H](N)CC(C)C)C(C)C)C(C)C)C(C)C)CSSC[C@@H](C(=O)O)NC1=O |  | RNA-seq, measured: Pstpip1 | mouse, traumatic brain injury model, frontal cortex and hippocampus | dose not given | baseline: TBI alone | log2 fold change | -1.95 |
| C[C@H]1CN(c2n[nH]c3nc(N[C@H]4CC[C@H](NS(=O)(=O)CCC(F)(F)F)CC4)ncc23)CCO1 | Neurofilament medium polypeptide (Homo sapiens, UniProt P07197) | Kinobeads competition, measured: NEFM |  | 20 µM, unit not given | baseline: vehicle | remaining binding | 1.08 |
| CS(=O)(=O)c1ccc(-c2nnc(/C=C/c3nnc(-c4ccc(C#N)cc4)o3)n2-c2ccccc2Cl)nc1 |  | RNA-seq GSEA, measured: FALLER_ENTEROCYTE_MOUSE | organoids, small intestinal, Apc Q1405X, mouse | dose not given, 3 days, knockout organoids | baseline: DMSO, direction not given | normalized enrichment score | 2.99 |
| CS(=O)(=O)Nc1ncn(-c2cc(F)c(COc3ccc(OS(=O)(=O)F)cc3)c(F)c2)n1 | Mycobacterium tuberculosis |  | Erdman |  |  | MIC90 | 0.04 µM |
| COc1cc(Nc2ncc(F)c(Nc3ccc4c(n3)NC(=O)C(C)(C)O4)n2)cc(OC)c1OC | 5-hydroxytryptamine receptor 2B (HTR2B, Homo sapiens, UniProt P41595) |  |  |  |  | IC50 | > 10 µM |
| COc1c(CCC[P+](c2ccccc2)(c2ccccc2)c2ccccc2)cc2c(c1OC)OCO2.[I-] | MDA-MB-468 | SRB |  |  |  | TGI | -5.93 log M |

For quick reference, copied from above:
| Structure (SMILES) | tested on | test | test system | setting | scale | quantity | result |
| --- | --- | --- | --- | --- | --- | --- | --- |
| COc1cc(Nc2ncc(F)c(Nc3ccc4c(n3)NC(=O)C(C)(C)O4)n2)cc(OC)c1OC | 5-hydroxytryptamine receptor 2B (HTR2B, Homo sapiens, UniProt P41595) |  |  |  |  | IC50 | > 10 µM |
| c1ccc(C(NCCNC(c2ccccc2)c2ccccc2)c2ccccc2)cc1 | GABAA central, rat | binding |  | 10 µM, Eurofins selectivity panel, with: muscimol |  | inhibition | 3% |
